Published values pooled from the literature.
Numbered parts are unrelated; each lists some results of a single study.
UniProt Q13976, sequence (whole entry, looked up): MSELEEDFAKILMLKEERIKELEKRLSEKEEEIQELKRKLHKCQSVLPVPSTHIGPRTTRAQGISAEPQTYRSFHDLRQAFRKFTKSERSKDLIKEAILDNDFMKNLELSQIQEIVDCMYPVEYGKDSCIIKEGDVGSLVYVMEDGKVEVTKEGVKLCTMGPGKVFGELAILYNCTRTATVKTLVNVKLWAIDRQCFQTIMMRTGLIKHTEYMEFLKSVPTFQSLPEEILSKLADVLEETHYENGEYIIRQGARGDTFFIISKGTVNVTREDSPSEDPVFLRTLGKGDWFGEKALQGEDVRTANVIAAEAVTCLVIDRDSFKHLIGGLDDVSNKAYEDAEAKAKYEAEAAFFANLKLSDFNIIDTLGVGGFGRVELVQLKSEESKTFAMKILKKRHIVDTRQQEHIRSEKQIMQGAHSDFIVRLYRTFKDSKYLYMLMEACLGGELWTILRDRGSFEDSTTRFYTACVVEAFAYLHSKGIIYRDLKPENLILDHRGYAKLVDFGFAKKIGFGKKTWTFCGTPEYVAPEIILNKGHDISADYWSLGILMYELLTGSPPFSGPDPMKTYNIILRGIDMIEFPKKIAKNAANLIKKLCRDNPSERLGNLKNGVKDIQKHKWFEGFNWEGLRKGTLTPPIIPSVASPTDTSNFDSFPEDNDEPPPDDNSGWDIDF
UniProt P54756, sequence (whole entry, looked up): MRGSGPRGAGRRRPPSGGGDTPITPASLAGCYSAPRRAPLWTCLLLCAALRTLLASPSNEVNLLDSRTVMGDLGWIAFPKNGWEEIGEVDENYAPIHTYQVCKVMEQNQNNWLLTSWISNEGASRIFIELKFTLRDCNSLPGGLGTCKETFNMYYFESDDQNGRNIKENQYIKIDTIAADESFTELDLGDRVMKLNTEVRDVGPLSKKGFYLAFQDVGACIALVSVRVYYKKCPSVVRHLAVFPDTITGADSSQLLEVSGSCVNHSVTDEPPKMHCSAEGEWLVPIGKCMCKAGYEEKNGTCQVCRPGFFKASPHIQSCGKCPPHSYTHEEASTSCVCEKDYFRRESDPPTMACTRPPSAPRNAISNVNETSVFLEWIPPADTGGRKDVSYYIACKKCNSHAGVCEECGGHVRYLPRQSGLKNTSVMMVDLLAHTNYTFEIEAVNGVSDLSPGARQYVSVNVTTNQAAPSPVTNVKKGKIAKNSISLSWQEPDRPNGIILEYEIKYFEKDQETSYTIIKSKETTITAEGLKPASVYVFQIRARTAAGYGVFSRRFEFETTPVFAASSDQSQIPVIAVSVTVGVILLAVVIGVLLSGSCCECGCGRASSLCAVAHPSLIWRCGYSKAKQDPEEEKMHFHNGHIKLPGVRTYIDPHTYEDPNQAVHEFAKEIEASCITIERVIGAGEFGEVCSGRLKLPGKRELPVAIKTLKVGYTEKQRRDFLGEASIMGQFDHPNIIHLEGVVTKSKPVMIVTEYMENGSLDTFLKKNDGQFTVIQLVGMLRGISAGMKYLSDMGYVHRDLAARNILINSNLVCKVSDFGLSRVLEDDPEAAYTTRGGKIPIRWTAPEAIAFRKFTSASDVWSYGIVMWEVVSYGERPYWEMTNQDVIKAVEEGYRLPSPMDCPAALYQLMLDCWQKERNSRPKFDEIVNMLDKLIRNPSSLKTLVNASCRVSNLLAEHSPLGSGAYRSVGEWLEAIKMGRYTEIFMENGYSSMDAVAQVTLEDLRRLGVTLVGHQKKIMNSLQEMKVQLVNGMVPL
UniProt P52564, sequence (whole entry, looked up): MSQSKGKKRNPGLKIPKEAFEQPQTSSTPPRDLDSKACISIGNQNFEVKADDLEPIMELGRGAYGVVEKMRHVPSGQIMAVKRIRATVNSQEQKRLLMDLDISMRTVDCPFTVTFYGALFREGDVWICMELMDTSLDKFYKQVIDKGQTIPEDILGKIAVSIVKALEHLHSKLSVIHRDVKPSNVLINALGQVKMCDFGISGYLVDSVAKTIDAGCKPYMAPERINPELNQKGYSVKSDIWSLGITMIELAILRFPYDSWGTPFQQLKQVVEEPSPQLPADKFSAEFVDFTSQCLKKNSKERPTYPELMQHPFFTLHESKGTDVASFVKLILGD
UniProt P68400, sequence (whole entry, looked up): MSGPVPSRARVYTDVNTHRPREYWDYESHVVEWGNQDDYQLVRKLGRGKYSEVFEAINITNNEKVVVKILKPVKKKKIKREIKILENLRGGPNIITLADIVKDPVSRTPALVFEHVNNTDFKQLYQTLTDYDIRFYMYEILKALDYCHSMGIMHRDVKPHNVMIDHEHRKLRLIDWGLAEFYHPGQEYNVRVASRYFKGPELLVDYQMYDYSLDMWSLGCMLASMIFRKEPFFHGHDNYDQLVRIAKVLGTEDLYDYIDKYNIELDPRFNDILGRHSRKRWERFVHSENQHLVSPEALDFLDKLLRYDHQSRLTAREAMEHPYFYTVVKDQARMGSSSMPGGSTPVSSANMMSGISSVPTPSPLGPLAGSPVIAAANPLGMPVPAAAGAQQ
UniProt Q02779, sequence (whole entry, looked up): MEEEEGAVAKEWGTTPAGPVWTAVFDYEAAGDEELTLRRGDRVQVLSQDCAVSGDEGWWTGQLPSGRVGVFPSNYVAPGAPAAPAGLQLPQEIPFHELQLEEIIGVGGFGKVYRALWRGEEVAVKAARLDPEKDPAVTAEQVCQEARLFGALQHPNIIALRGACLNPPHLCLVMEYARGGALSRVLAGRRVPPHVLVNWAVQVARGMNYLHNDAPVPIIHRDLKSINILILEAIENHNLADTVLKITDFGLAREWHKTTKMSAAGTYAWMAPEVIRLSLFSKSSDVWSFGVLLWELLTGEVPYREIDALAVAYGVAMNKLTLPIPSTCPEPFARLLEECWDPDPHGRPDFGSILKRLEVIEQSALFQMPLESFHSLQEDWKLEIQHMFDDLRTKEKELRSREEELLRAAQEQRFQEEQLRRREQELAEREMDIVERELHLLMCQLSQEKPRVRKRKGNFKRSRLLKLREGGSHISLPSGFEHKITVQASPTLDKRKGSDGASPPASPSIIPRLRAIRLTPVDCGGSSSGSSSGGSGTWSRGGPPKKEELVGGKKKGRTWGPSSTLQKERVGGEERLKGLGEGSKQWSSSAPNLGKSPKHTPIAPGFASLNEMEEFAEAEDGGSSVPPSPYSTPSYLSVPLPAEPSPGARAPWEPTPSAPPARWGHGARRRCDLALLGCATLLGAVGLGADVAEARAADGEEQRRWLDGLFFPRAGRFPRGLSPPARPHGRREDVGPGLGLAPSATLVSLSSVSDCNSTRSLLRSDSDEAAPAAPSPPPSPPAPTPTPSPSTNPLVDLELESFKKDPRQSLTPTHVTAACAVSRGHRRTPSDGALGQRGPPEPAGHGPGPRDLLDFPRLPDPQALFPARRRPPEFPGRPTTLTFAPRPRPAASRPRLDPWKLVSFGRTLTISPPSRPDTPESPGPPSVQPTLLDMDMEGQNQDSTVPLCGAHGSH
UniProt O15264, sequence (whole entry, looked up): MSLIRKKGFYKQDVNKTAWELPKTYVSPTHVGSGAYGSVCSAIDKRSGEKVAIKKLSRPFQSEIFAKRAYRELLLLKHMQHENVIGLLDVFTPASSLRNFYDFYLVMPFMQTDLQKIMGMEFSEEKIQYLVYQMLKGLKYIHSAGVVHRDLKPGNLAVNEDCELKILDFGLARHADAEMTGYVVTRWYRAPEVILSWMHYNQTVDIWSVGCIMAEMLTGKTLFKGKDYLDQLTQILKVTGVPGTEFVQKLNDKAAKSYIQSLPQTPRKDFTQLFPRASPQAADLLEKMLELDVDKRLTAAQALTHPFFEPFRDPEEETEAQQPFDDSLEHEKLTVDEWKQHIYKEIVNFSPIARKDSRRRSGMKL

Set 1 — observed: binding; technique: phage display NGS; molecule type: peptide; relative to: input library; endpoint: minimum log2 enrichment ratio
Target: UDP-N-acetylglucosamine--peptide N-acetylglucosaminyltransferase 110 kDa subunit (OGT, Homo sapiens, UniProt O15294)
UniProt O15294, sequence (whole entry, looked up): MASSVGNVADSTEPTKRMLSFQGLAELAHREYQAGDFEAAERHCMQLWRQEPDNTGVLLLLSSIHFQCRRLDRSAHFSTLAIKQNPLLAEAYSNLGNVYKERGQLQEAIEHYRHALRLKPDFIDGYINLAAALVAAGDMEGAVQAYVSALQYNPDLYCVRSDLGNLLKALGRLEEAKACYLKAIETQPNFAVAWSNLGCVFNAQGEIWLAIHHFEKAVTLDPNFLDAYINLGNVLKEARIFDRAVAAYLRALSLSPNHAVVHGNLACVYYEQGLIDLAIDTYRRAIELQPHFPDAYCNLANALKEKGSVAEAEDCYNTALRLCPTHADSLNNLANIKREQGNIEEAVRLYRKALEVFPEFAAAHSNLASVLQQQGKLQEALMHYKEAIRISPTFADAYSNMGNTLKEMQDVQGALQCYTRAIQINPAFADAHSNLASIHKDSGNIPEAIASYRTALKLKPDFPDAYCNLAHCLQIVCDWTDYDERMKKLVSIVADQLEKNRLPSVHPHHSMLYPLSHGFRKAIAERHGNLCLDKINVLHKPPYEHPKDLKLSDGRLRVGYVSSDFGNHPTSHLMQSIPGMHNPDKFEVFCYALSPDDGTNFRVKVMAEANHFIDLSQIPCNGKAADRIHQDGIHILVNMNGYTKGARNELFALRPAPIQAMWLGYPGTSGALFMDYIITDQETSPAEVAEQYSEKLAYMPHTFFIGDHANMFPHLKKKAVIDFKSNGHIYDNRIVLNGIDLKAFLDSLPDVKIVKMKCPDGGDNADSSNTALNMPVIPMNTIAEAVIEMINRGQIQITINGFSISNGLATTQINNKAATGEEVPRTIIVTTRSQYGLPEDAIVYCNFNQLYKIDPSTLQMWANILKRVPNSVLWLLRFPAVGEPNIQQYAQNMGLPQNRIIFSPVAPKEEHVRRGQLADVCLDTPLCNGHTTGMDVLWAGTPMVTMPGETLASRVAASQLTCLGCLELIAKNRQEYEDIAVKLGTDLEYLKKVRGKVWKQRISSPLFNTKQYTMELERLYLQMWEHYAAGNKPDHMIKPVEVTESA
KFTFMPLYQIEYNI: 4.67
HLHGHTYMPRHGEVT: 3.76
HVFHDQQSLLHMDKH: 3.28
GLWPHHDHTHPSTEA: 3.64
WMQHATHDTHNIILV: 3.19
HRHGWQIHLNDGVW: 1.61
QLFPPVYIMKLDSQ: 3.61
HYHPNHHGSYSLRN: 2.82

Set 2 — observed: enzyme activity; mode: inhibitor; tested at: 0.5 µM; relative to: control; endpoint: remaining activity
SMILES: N/C(=N\[N+](=O)[O-])N/N=C\c1ccc(-c2cccc([N+](=O)[O-])c2)o1
PRKCI (Homo sapiens, UniProt P41743): 92.3%
EPHA5 (Homo sapiens, UniProt P54756): 100%
WNK2 (Homo sapiens, UniProt Q9Y3S1): 106%
MKNK2 (Homo sapiens, UniProt Q9HBH9): 89.3%
BTK (Homo sapiens, UniProt Q06187): 110%
MAP4K2 (Homo sapiens, UniProt Q12851): 115%
NEK4 (Homo sapiens, UniProt P51957): 103%
PLK2 (Homo sapiens, UniProt Q9NYY3): 107%
LYN (Homo sapiens, UniProt P07948): 96.3%
IRAK4 (Homo sapiens, UniProt Q9NWZ3): 87.3%
CSNK2A1 (Homo sapiens, UniProt P68400): 91%
MAP2K6 (Homo sapiens, UniProt P52564): 111%
MAPK13 (Homo sapiens, UniProt O15264): 101%
PRKCD (Homo sapiens, UniProt Q05655): 94.2%
LRRK2 (Homo sapiens, UniProt Q5S007): 91%
KIT (Homo sapiens, UniProt P10721): 96.4%
MAP3K10 (Homo sapiens, UniProt Q02779): 101%
AKT3 (Homo sapiens, UniProt Q9Y243): 94.3%
PRKG1 (Homo sapiens, UniProt Q13976): 87.4%
Cyclin-dependent kinase 9, with cyclin T1 (CDK9, Homo sapiens, UniProt P50750): 109%
MAPK12 (Homo sapiens, UniProt P53778): 93.4%
CSNK1A1 (Homo sapiens, UniProt P48729): 113%

Set 3 — cell line: HEK-293T/ACE2; tested at: concentration not given; time: 16 (unit not given); relative to: vehicle; endpoint: viability
CC(=O)Oc1cc2c(s1)CCN(C(C(=O)C1CC1)c1ccccc1F)C2 (centres unmarked): 103%
CC[C@@H](C(N)=O)N1CCCC1=O: 103%
CCN[C@H]1CN(CCCOC)S(=O)(=O)c2sc(S(N)(=O)=O)cc21: 102%
CCOC(=O)C1=C(COCCN)NC(C)=C(C(=O)OC)C1c1ccccc1Cl (centres unmarked): 93.3%
CO[C@H]1/C=C/O[C@@]2(C)Oc3c(C)c(O)c4c(O)c(c(/C=N/N5CCN(C6CCCC6)CC5)c(O)c4c3C2=O)NC(=O)/C(C)=C\C=C\[C@H](C)[C@H](O)[C@@H](C)[C@@H](O)[C@@H](C)[C@H](OC(C)=O)[C@@H]1C: 99.4%

Set 4 — cell line: A-375; tested at: 100 µM; time: 18 h; endpoint: viability
CCN(CC)CCOC(=O)C(O)(c1ccccc1)c1ccccc1: 98.3%
CC(CCc1ccccc1)NC(C)C(O)c1ccc(O)cc1 (centres unmarked): 97.3%
CC(C)=CCOc1c2occc2cc2ccc(=O)oc12: 80.7%

Set 5 — tested at: 10 µM; endpoint: inhibition
Structure (SMILES): CNC(=O)c1cc(C(=O)N[C@H]2[C@@H]3COC[C@@H]32)cc2c1O[C@H](CF)[C@H]2c1ccccc1
SLC6A4 (Homo sapiens, UniProt P31645); binding, radioligand binding: 27.2%
CHRM3 (Homo sapiens, UniProt P20309); binding, radioligand binding: 11.2%
OPRM1 (Homo sapiens, UniProt P35372); binding, radioligand binding: -5.14%
HTR2A (Homo sapiens, UniProt P28223); cell-free assay: 13.4%

Further values, each from its own experiment
C=CC(=O)N1CCC([C@@H]2CCNc3c(C(N)=O)c(-c4ccc(Oc5ccccc5)cc4)nn32)CC1 — inhibition (LTK (Homo sapiens, UniProt P29376); cell-free assay; 1 µM): 0%
CN1CCN(C(=O)OC2c3nccnc3C(=O)N2c2ccc(Cl)cn2)CC1 (centres unmarked) — nuclei count (mouse MPNST tumor cells; high-content nuclear imaging, refers to: cell number; 10 µM, 12 h, mean of 2 replicates; relative to: plate mean, higher = more cells): -0.113 z-score

Excerpt of the above (set 2):
PRKCD (Homo sapiens, UniProt Q05655): 94.2%
KIT (Homo sapiens, UniProt P10721): 96.4%
PRKCI (Homo sapiens, UniProt P41743): 92.3%
AKT3 (Homo sapiens, UniProt Q9Y243): 94.3%
